{"data": "Experimental data collected from several papers", "note": "Each line is one published result; not all experiments were run side by side. ± gives the spread as reported."}
{"Compound": "CCCCCCCC(=O)NCCCC[C@H](NC(=O)CCCCCCC)C(=O)N[C@@H](CCCCNC(=O)CCCCCCC)C(=O)NCC(=O)NCC(=O)NCC(=O)N[C@@H](CS)C(=O)N[C@@H](CCCNC(=N)N)C(=O)N[C@@H](CCCCN)C(=O)N1CCC[C@H]1C(=O)N[C@@H](CS)C(=O)N[C@@H](CCCNC(=N)N)C(=O)N[C@@H](CCCCN)C(=O)N1CCC[C@H]1C(=O)N[C@@H](CS)C(=O)N[C@@H](CCCNC(=N)N)C(=O)N[C@@H](CCCCN)C(=O)N1CCC[C@H]1C(N)=O", "tested on": "Candida albicans", "test": "broth microdilution", "test system": "SP 3903, RPMI-1640", "conditions": "48 h, 30 °C", "endpoint": "MIC", "result": "8 µM"}
{"Compound": "CC(C)C[C@H](NC(=O)[C@H](CC(C)C)NC(=O)[C@H](CCCCN)NC(=O)CNC(=O)[C@H](CC(C)C)NC(=O)CNC(=O)[C@H](CO)NC(=O)[C@H](CC(C)C)NC(=O)[C@H](CC(C)C)NC(=O)[C@H](CO)NC(=O)[C@H](CCCCN)NC(=O)[C@H](CC(C)C)NC(=O)[C@H](CCCCN)NC(=O)[C@H](CCCCN)NC(=O)[C@H](C)NC(=O)[C@H](C)NC(=O)[C@H](C)NC(=O)CNC(=O)[C@H](CO)NC(=O)[C@H](Cc1c[nH]c2ccccc12)NC(=O)[C@@H](N)CCCCN)C(=O)O", "tested on": "Candida glabrata", "test": "broth microdilution", "test system": "ATCC 2001", "conditions": "44 h, 37 °C", "endpoint": "MIC", "result": "100 µM"}
{"Compound": "CC(=O)N[C@@H](CC(C)C)C(=O)N[C@H]1CSSC[C@@H](C(=O)N2CCC[C@H]2C(N)=O)NC(=O)[C@H](CCCCN)NC(=O)[C@H](C(C)C)NC(=O)[C@H](CCCCN)NC(=O)CNC(=O)[C@H](CC(C)C)NC(=O)[C@H](Cc2ccccc2)NC(=O)[C@H](CCCCN)NC(=O)[C@H](CC(C)C)NC(=O)[C@H](CCC(=O)O)NC(=O)[C@H](Cc2ccccc2)NC(=O)[C@H](CCCNC(=N)N)NC(=O)[C@H](CCCCN)NC(=O)[C@H](CC(C)C)NC(=O)[C@H](CC(=O)O)NC(=O)[C@@H]2CCCN2C(=O)[C@H](CCCCN)NC(=O)[C@H](C(C)C)NC(=O)[C@H](CCCCN)NC(=O)[C@H](CCCCN)NC(=O)[C@H](CCCCN)NC1=O", "tested on": "Aeromonas hydrophila", "test": "broth dilution", "conditions": "24 h", "endpoint": "MIC", "result": "> 40 µM"}
{"Compound": "O=C1NC2(CC2)COc2ncc(F)cc2[C@H]2COCCN2c2ccn3ncc1c3n2", "test system": "Sprague-Dawley rat, male", "conditions": "oral, 20 mg/kg/day, end of recovery, 4-week repeated-dose toxicity", "endpoint": "body weight", "result": "482 ± 41.3 g"}
{"Compound": "C#CCOc1ccc(CN[C@@]2(C)C[C@H](O[C@H]3[C@H](Oc4c5cc6cc4Oc4ccc(cc4Cl)[C@@H](O)[C@@H](NC(=O)[C@@H](CC(C)C)NC)C(=O)N[C@@H](CC(N)=O)C(=O)N[C@H]6C(=O)N[C@H]4C(=O)N[C@H](C(=O)N[C@H](C(=O)O)c6cc(O)cc(O)c6-c6cc4ccc6O)[C@H](O)c4ccc(c(Cl)c4)O5)O[C@H](CO)[C@@H](O)[C@@H]3O)O[C@@H](C)[C@H]2O)cc1OC", "tested on": "Staphylococcus simulans", "test": "broth microdilution", "test system": "22, cation-adjusted Mueller-Hinton broth", "endpoint": "MIC", "result": "0.616 µM"}
{"Compound": "CC[C@H](C)[C@H](NC(=O)CN)C(=O)NCC(=O)N[C@@H](C)C(=O)N[C@H](C(=O)N[C@@H](CC(C)C)C(=O)N[C@@H](CCCCN)C(=O)N[C@H](C(=O)N[C@@H](CC(C)C)C(=O)N[C@H](C(=O)N[C@H](C(=O)NCC(=O)N[C@@H](CC(C)C)C(=O)N1CCC[C@H]1C(=O)N[C@@H](C)C(=O)N[C@@H](CC(C)C)C(=O)N[C@H](C(=O)N[C@@H](CO)C(=O)N[C@@H](Cc1c[nH]c2ccccc12)C(=O)N[C@H](C(=O)N[C@@H](CCCCN)C(=O)N[C@@H](CCCNC(=N)N)C(=O)N[C@@H](CCCCN)C(=O)N[C@@H](CCCNC(=N)N)C(=O)N[C@@H](CCC(N)=O)C(=O)N[C@@H](CCC(N)=O)C(N)=O)[C@@H](C)CC)[C@@H](C)CC)[C@@H](C)O)[C@@H](C)O)C(C)C)C(C)C", "tested on": "Listeria monocytogenes", "test": "CLSI broth microdilution", "test system": "KCTC 3710", "conditions": "18 h, 37 °C", "endpoint": "MIC", "result": "2 µM"}
{"Compound": "CC[C@H](C)[C@H](N)C(=O)N[C@@H](CCCNC(=N)N)C(=O)N[C@H](C(=O)N[C@@H](Cc1c[nH]c2ccccc12)C(=O)N[C@@H](CCCCN)C(=O)N[C@@H](CCCCN)C(=O)N[C@H](C(=O)N[C@H](C(=O)N[C@@H](CCCNC(=N)N)C(=O)N[C@@H](CCCCN)C(=O)N[C@@H](CCSC)C(=O)N[C@@H](CCCCN)C(=O)N[C@@H](C)C(=O)N[C@H](C(=O)N[C@@H](Cc1ccc(O)cc1)C(=O)N[C@@H](Cc1c[nH]cn1)C(N)=O)[C@@H](C)CC)C(C)C)[C@@H](C)CC)C(C)C", "tested on": "Listeria monocytogenes", "test": "broth dilution", "test system": "KCTC 13064", "endpoint": "MIC", "result": "100 µM"}
{"Compound": "CC1(C)S[C@@H]2[C@H](NC(=O)[C@H](NC(=O)C3=C(O)C(c4ccccc4F)NC3=O)c3ccccc3)C(=O)N2[C@H]1C(=O)O (some centres unmarked)", "tested on": "Escherichia coli", "test": "broth microdilution", "test system": "ATCC 35218, low-level TEM-1", "conditions": "with: clavulanic acid 6 µg/mL", "endpoint": "MIC", "result": "100 µg/mL"}
{"Compound": "CCCCCC(=O)NCCCC[C@H](NC(=O)CCCCC)C(=O)N[C@@H](CCCCNC(=O)CCCCC)C(=O)NCC(=O)NCC(=O)NCC(=O)N[C@@H](CS)C(=O)N[C@@H](CCCNC(=N)N)C(=O)N[C@@H](CCCCN)C(=O)N1CCC[C@H]1C(=O)N[C@@H](CS)C(=O)N[C@@H](CCCNC(=N)N)C(=O)N[C@@H](CCCCN)C(=O)N1CCC[C@H]1C(N)=O", "tested on": "Candida albicans", "test": "broth microdilution", "test system": "SP 3931, RPMI-1640", "conditions": "48 h, 30 °C", "endpoint": "MIC", "result": "32 µM"}
{"Compound": "c1ccc(CCNC2CCCc3c2[nH]c2ccc(C4CCCCC4)cc32)cc1 (centres unmarked)", "tested on": "Staphylococcus simulans", "test": "broth microdilution", "test system": "22", "endpoint": "MIC", "result": "2 µg/mL"}
{"Compound": "CCCCCCCC(=O)NCCCC[C@H](NC(=O)CCCCCCC)C(=O)N[C@@H](CCCCNC(=O)CCCCCCC)C(=O)NCC(=O)NCC(=O)NCC(=O)N[C@@H](CS)C(=O)N[C@@H](CCCNC(=N)N)C(=O)N[C@@H](CCCCN)C(=O)N1CCC[C@H]1C(=O)N[C@@H](CS)C(=O)N[C@@H](CCCNC(=N)N)C(=O)N[C@@H](CCCCN)C(=O)N1CCC[C@H]1C(=O)N[C@@H](CS)C(=O)N[C@@H](CCCNC(=N)N)C(=O)N[C@@H](CCCCN)C(=O)N1CCC[C@H]1C(=O)N[C@@H](CS)C(=O)N[C@@H](CCCNC(=N)N)C(=O)N[C@@H](CCCCN)C(=O)N1CCC[C@H]1C(N)=O", "tested on": "Candida albicans", "test": "broth microdilution", "test system": "CGMCC 2.209, RPMI-1640", "conditions": "48 h, 30 °C", "endpoint": "MIC", "result": "16 µM"}
{"Compound": "CC(C)CCCCCCCCC/C=C/C(=O)N[C@@H](CC(=O)O)C(=O)N[C@H]1CNC(=O)[C@@H]2CCCN2C(=O)[C@H](C(C)C)NC(=O)[C@@H](CN)NC(=O)CNC(=O)[C@H](CC(=O)O)NC(=O)CNC(=O)[C@H](CC(=O)O)NC(=O)[C@H](CC(=O)O)NC(=O)[C@H]2CCCCN2C1=O", "tested on": "Staphylococcus simulans", "test": "broth microdilution", "test system": "22, Mueller-Hinton broth, Mg2+ 10 mg/L", "conditions": "16 h, 30 °C, with: Ca2+ 1.0 mM", "endpoint": "MIC", "result": "8 µg/mL"}
{"Compound": "CCCCCCCC(=O)NCCCC[C@H](NC(=O)CCCCCCC)C(=O)N[C@@H](CCCCNC(=O)CCCCCCC)C(=O)NCC(=O)NCC(=O)NCC(=O)N[C@@H](CS)C(=O)N[C@@H](CCCNC(=N)N)C(=O)N[C@@H](CCCCN)C(=O)N1CCC[C@H]1C(=O)N[C@@H](CS)C(=O)N[C@@H](CCCNC(=N)N)C(=O)N[C@@H](CCCCN)C(=O)N1CCC[C@H]1C(N)=O", "tested on": "Candida albicans", "test": "broth microdilution", "test system": "SP 3902, RPMI-1640", "conditions": "48 h, 30 °C", "endpoint": "MIC", "result": "8 µM"}
{"Compound": "[O-][N+]1=C(c2ccsc2)C2=NCCCN2c2ccccc21", "tested on": "Fusobacterium nucleatum", "endpoint": "MIC", "result": "0.06 to 1 µg/mL"}
{"note": "A few entries again:"}
{"Compound": "CCCCCCCC(=O)NCCCC[C@H](NC(=O)CCCCCCC)C(=O)N[C@@H](CCCCNC(=O)CCCCCCC)C(=O)NCC(=O)NCC(=O)NCC(=O)N[C@@H](CS)C(=O)N[C@@H](CCCNC(=N)N)C(=O)N[C@@H](CCCCN)C(=O)N1CCC[C@H]1C(=O)N[C@@H](CS)C(=O)N[C@@H](CCCNC(=N)N)C(=O)N[C@@H](CCCCN)C(=O)N1CCC[C@H]1C(=O)N[C@@H](CS)C(=O)N[C@@H](CCCNC(=N)N)C(=O)N[C@@H](CCCCN)C(=O)N1CCC[C@H]1C(N)=O", "tested on": "Candida albicans", "test": "broth microdilution", "test system": "SP 3903, RPMI-1640", "conditions": "48 h, 30 °C", "endpoint": "MIC", "result": "8 µM"}
{"Compound": "CC(C)C[C@H](NC(=O)[C@H](CC(C)C)NC(=O)[C@H](CCCCN)NC(=O)CNC(=O)[C@H](CC(C)C)NC(=O)CNC(=O)[C@H](CO)NC(=O)[C@H](CC(C)C)NC(=O)[C@H](CC(C)C)NC(=O)[C@H](CO)NC(=O)[C@H](CCCCN)NC(=O)[C@H](CC(C)C)NC(=O)[C@H](CCCCN)NC(=O)[C@H](CCCCN)NC(=O)[C@H](C)NC(=O)[C@H](C)NC(=O)[C@H](C)NC(=O)CNC(=O)[C@H](CO)NC(=O)[C@H](Cc1c[nH]c2ccccc12)NC(=O)[C@@H](N)CCCCN)C(=O)O", "tested on": "Candida glabrata", "test": "broth microdilution", "test system": "ATCC 2001", "conditions": "44 h, 37 °C", "endpoint": "MIC", "result": "100 µM"}
